Results of several laboratories.
Numbered parts are unrelated; each lists some results of a single study. Substitutions count along the parent as printed.

Set 1
Target: CCNE2, cyclin fold, Cln2 fusion (human)
Technique: yeast growth competition, sequencing
Sample: yeast
Setting: strong parent motif
Reference: not given
Reading: higher = stronger binding
Starting sequence: WEE1 docking peptide (human); HKTFRKLRLFDTP
Variant | normalised enrichment score
T12C | 0.491
L9T | -0.397
K2Y | 0.941
K6H | 0.365
H1C | 1
L9G | 0.528
H1T | 1.17
H1L | -1.16
T3P | 0.513
L9Q | 0.292
T3F | 1.04
T12F | -0.068
T12S | 1.18
L9N | 0.776
F4D | -0.198
F4Q | 0.533
D11E | 0.391
F10Y | 0.0989
K6L | -0.176
T3E | -0.0899
D11W | 0.956
K6F | -0.572
H1Y | 0.147
H1W | 1.29
R8W | 1.59

Set 2
Target: RING finger protein unkempt homolog, zinc fingers 1-6, SBP tag (UNK, Homo sapiens, UniProt Q9C0B0, residues 30-357)
Chain of UniProt Q9C0B0 (30-357, looked up): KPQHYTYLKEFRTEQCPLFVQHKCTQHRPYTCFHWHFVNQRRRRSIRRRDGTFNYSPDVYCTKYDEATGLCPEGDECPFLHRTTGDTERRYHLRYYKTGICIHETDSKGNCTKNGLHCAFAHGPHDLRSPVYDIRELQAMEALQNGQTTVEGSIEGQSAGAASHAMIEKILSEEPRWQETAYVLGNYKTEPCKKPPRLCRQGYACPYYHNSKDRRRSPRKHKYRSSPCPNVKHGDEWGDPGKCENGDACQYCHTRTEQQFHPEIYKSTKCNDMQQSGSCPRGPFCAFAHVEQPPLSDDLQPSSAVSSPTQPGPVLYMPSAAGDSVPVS
Technique: RNA Bind-n-Seq
Molecule type: RNA
Sample: in vitro
Concentration: 100 nM
Setting: RNA with constant flanks, vertebrate orthologous sites, ends assumed
Reference: input RNA pool
Reading: higher = stronger binding
Shared flanks, not repeated: GGGAGUUCUACAGUCCGACGAUC … CAACAGAGGAUUGAGCAUCA
Sequence | bound/input enrichment [ratio]
ACCAUGGCUGCUUUGUAUGACCUCAGUGAGUCACAGUCUCCCUUGGCAUUUAGUCAGUAGUAGAGCCAGUCAUCCUUAACAAAUCUUUUCACAUUUUAUUUCUUCUGUACAUAGUCGUUU | 1.6
UGUACCUCCUGAACUUCUAGCUUUCAAGUUGGGGCUGGUUUUUUUUUCUUUUCUUUUCUUUAGAAUUUUUCCCUGUUUCCCACCUUCUCUUCCCCUGUUCCCAAGAUCUGACUCAUGGAU | 1.57
AAUGGCUCUUGCUCCACUGAGAAGAGUAGAAAUAAGUCCCCCAAAUAUAAAACUCCUAAAUAACUAUUAGAAAAAUUAAAAUGUUUAAAUUUUGUAAAUCACCUGAUACCACUACACACC | 2.23
GUUGUACCCCUGCUGUAUAAUAAACACCCUUAGACAUUUAUCAGCUCUUGAUACAAAUGUUAGUCCCUAACCACUUUUUAUAUGUUUUAAAUUUUUGAAAUUCAAGUGUAUCUGCCAUAA | 2.48
AGUGGACGCAGCAUAGAAACAUCCAAGGUACCGACUGCAGCUUUAGAUACUUCAUUAGUAUGGAAGUCACAGUUCUCUAUGUGAGCAUACAUAUCUUUAAGUAAACUACAUCUUUAACUU | 0.397
UGUACUUGGAAAAAACAUCAUCCUAAUUUUAAGCUAGUCACAGUGAUAACUAGUCUGUGCUAGUGGAAUCAUUUACUCUUACCUUUUAAAUUAUCUUCUUUGUCUGAUACCUGAAACCAA | 0.904
UGCUGUUAAUGCACUGUAUCCCAAGCCUUGUCCGAAUUUUGUGUAAUCUAGGAGAUUUUAUAGUUUUAUUUUAAUGAAUUCCAGAAUGAUCCAGAGCAUAGUCGGAAGUACGUUGUCUUU | 2.84
GUGAGGGUCUACUGACCACUCACUAUUAUGUCUGGUAUCUGUAAACACUCUUUUUGUUCUUAGUCUUUUUCUUGUAUAAUUGAUGUCCUUUAAAAUUGCUAAUGUAUAACAGGGCUUAUA | 0.883

Set 3
Target: RNA binding protein fox-1 homolog 2, RRM domain, GST-SBP tag (RBFOX2, Homo sapiens, UniProt O43251-10, residues 100-194)
Technique: RNA Bind-n-Seq
Molecule type: RNA
Sample: in vitro
Concentration: 365 nM
Setting: natural RNA segment, single round, ends assumed
Reference: no-protein control
Reading: higher = stronger binding
Shared flanks, not repeated: GGGAGUUCUACAGUCCGACGAUC … UGGAAUUCUCGGGUGCCAA
Sequence | RBNS enrichment (R)
CCUUCCAAGUGUUUGCCAUGUGGCAGGCUUUGUUCUGGCUCAGUUUCCAAUUAGAAAGUGGAAAUCUAGAGAUCCAGAUGAACAUAUCCAUCUCAGGAGGCACGGAGGGA | 0.639
GGAAGCAGGUGUGAUUACUUUUUUGCUCGUAGAUAUUGUCCUAAGUUGGAAUUCUCCCACUGCCCUAAAACUUUCCCUAGUAGUCCUUUAAACUCCCCCCUCCCUUUUUG | 1.28
CUACAGAACUUAAAGUGAGGGAACCAUUUCCUCUCACAGACAAAGAGGCCUGGGAUAUUAGGACUUUGGGGUUUGAGAGCAUCAUGGGGCAGACAGAUGGUGGAUGGUCU | 0.671
GACGUCCACAGAGGCAGCACGGAGUGGCGAAACUCGGUUCCAGCCUGUCGUCGGCAGUGAGCGGGUUUAGCUUUACACAGCCUCUGCCCAGCUUUAACUUGUAAGACAGC | 1.67
GGGAAGCCCUCAACUCAUCUCUGAACUUAGAAUCUCAUCCUUAGGGCUCAGAGAGUCCCAGCCCUAAGGGUGUGAACCUCACCUCCUGGGGCUUCCGAGCUACAGGGCUG | 0.651
AAAAAUAUGUUCCAGAACCAUGUGCAAGCUCUGUAAGUCACUGCCCGUGUCUGGAUGAAGGGCUUUCGGAAUGUAGAUGGUCAGGAGGUGCAUGCUGCUAUGUGAAUCUU | 11.6
AGCCAGAAGCCCAGGACCUCCUUUUUGCACCAGCCUAUUUGAUAGUCCUAUAUUUUUAAAGCACACGGAAGGAGCACCAGCAGCUCUGAUAGUAUUGUGAAAGUUCUGAG | 1.05
CCUCUCUUUCCUCCAAGCUAUUUUCUUCCUGGUUGUGGGGCGCGAAGGGCACACUGUAAAGUUGGGCUGUGUACUUGGUGGGGUUAGUGUGGAGAAGAGGGCCUCAUCGC | 0.508

Set 4
Target: Ras GTPase-activating protein-binding protein 1, full length (G3BP1, Homo sapiens, UniProt Q13283)
Chain of UniProt Q13283 (whole entry, looked up): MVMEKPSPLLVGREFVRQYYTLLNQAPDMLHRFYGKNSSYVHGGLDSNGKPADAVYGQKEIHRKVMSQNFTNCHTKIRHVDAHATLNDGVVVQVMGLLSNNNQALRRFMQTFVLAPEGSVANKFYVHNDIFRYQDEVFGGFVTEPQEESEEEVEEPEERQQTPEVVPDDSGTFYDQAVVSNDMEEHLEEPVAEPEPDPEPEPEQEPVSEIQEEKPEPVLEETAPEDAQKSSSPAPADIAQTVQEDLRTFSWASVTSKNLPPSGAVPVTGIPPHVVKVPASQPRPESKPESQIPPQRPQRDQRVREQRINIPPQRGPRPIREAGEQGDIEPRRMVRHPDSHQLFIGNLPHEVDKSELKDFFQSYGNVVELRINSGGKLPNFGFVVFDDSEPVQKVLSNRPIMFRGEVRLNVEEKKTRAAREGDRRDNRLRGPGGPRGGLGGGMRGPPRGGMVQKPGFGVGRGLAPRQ
Technique: RNA Bind-n-Seq
Molecule type: RNA
Sample: in vitro
Concentration: 200 nM
Setting: whole 134-nt RNA, ends assumed
With: 150 mM KCl
Reference: input library
Reading: higher = stronger binding
Shared flanks, not repeated: GGGAGUUCUACAGUCCGACGAUC … UGGAAUUCUCGGGUGUCAAGG
Sequence | log2 enrichment
CUCAAGUCCUGUGCUACACAUCGUAUGUACCGAAUCGGAGGUUUGGAAAAAGGAAAGUAUUAUGUUACGCCGUUCGGAUCUGCACUUCCA | -0.633
GUGCUGGCUGGCCACGGUCACCUGUAUUCCCGCAUCCCAGGCCUGCUCAGCCCCCAUCCCCUGCUGCAGCUGAGCUACACGGCCACCGAC | 1.03
UCCUGUGCUACACAUCGUAUGUACCGAAUCGUGUGUGUGUGUGUGUGUGUGUGUGUGUGUAAAGUAUUAUGUUACGCCGUUCGGAUCUGC | 0.99
CAACUUUAGAGGAGGAUCUGAUGGAUAUGGCAGUGGACGUGGAUUUGGGGAUGGCUAUAAUGGGUAUGGAGGAGGACCUGGAGGUGGCAA | 0.508
UGCGGGCGGCUGAGACGCCGCCUGCCUGGCACCUAGGAGCGCAGCGGAGCCCCGACACCGCCGCCGCCGCCAUGGAGUCCGAGACCGAAC | 1.31
UUCUGCACCUCUGCUACCUAAAGAAGACCCAAUCUUCACAUAUUUAUCUAAACGGUUAGGAAGGAGUAUAGAUGACAUAGGUCACCUCAU | 0.18
UGGGAGGUGGAUUUUGUUUAUUUUUUUAGCUCAUUUCCAGGGGUGGGAAUUUUUUUUUAAUAUGUGUCAUGAAUAAAGUUGUUUUGGAAA | 0.331
UAACUUUAGAGGAGGAUCUCAUGGAUAUGGCAGUGGACGUGGAUUUGGGGAUGGCUAUAAUGGGUAUGGAGGAGGACCUGGAGGUGGCAA | 0.441
CCUCAAGUCCUGUGCUACACAUCGUAUGUACCGAAUCGGUGGUGGUUUUUGGAAAGUAUUAUGUUACGCCGUUCGGAUCUGCACUUCCAG | -0.137

Some of these lines once more (set 3):
Sequence | RBNS enrichment (R)
AAAAAUAUGUUCCAGAACCAUGUGCAAGCUCUGUAAGUCACUGCCCGUGUCUGGAUGAAGGGCUUUCGGAAUGUAGAUGGUCAGGAGGUGCAUGCUGCUAUGUGAAUCUU | 11.6
CCUCUCUUUCCUCCAAGCUAUUUUCUUCCUGGUUGUGGGGCGCGAAGGGCACACUGUAAAGUUGGGCUGUGUACUUGGUGGGGUUAGUGUGGAGAAGAGGGCCUCAUCGC | 0.508
GACGUCCACAGAGGCAGCACGGAGUGGCGAAACUCGGUUCCAGCCUGUCGUCGGCAGUGAGCGGGUUUAGCUUUACACAGCCUCUGCCCAGCUUUAACUUGUAAGACAGC | 1.67
GGGAAGCCCUCAACUCAUCUCUGAACUUAGAAUCUCAUCCUUAGGGCUCAGAGAGUCCCAGCCCUAAGGGUGUGAACCUCACCUCCUGGGGCUUCCGAGCUACAGGGCUG | 0.651
CCUUCCAAGUGUUUGCCAUGUGGCAGGCUUUGUUCUGGCUCAGUUUCCAAUUAGAAAGUGGAAAUCUAGAGAUCCAGAUGAACAUAUCCAUCUCAGGAGGCACGGAGGGA | 0.639
AGCCAGAAGCCCAGGACCUCCUUUUUGCACCAGCCUAUUUGAUAGUCCUAUAUUUUUAAAGCACACGGAAGGAGCACCAGCAGCUCUGAUAGUAUUGUGAAAGUUCUGAG | 1.05
